Experimental data pooled from the literature.
A part holds a random share of what one study measured. “And” joins repeats or separate records; there may be more than shown.

Series 1
SMILES: COc1ccc2c(c1)O[C@H](c1ccc(OC)c(OC)c1)C[C@@H]2NC(=O)C1(c2ccc3c(c2)OC(F)(F)O3)CC1
Effect on: cell-free assay
Method: competition with immobilised ligand
Tested at: 1 µM
| target | remaining binding [%] |
| --- | --- |
| Inhibitor of nuclear factor kappa-B kinase subunit beta (IKBKB, Homo sapiens, UniProt O14920) | 97 |
| Serine/threonine-protein kinase 38 (STK38, Homo sapiens, UniProt Q15208) | 100 |
| Muscle, skeletal receptor tyrosine-protein kinase (MUSK, Homo sapiens, UniProt O15146) | 100 |
| Mitogen-activated protein kinase 7 (MAPK7, Homo sapiens, UniProt Q13164) | 100 |
| Rho-associated protein kinase 1 (ROCK1, Homo sapiens, UniProt Q13464) | 84 |
| Serine/threonine-protein kinase LATS1 (LATS1, Homo sapiens, UniProt O95835) | 65 |
| Epidermal growth factor receptor (EGFR, Homo sapiens, UniProt P00533, del747-750/T751S) | 100 |
| Macrophage colony-stimulating factor 1 receptor, autoinhibited (CSF1R, Homo sapiens, UniProt P07333) | 100 |
| Cyclin-dependent kinase 15 (CDK15, Homo sapiens, UniProt Q96Q40) | 100 |
| Serine/threonine-protein kinase Nek3 (NEK3, Homo sapiens, UniProt P51956) | 90 |

Series 2
Structure (SMILES): C[C@@H]1[C@H](O)[C@@H](C)/C=C/C=C/C=C/C=C/C=C/C=C/C=C/[C@H](O[C@@H]2O[C@H](C)[C@@H](O)[C@H](N)[C@@H]2O)C[C@@H]2O[C@](O)(C[C@@H](O)C[C@@H](O)[C@H](O)CC[C@@H](O)C[C@@H](O)CC(=O)O[C@H]1C)C[C@H](O)[C@H]2C(=O)O
Organism: Leishmania donovani
Strain: DD8
Matrix: promastigotes
| tested at | time | promastigote number |
| --- | --- | --- |
| 16660 µM | 48 h | 1550 and 1560 |
| 160 µM | 48 h | 1.55e+06 and 1.57e+06 |
| 6660 µM | 48 h | 1570 and 1250 |
| 660 µM | 48 h | 326000 and 406000 |
| 1660 µM | 24 h | 169000 |
| 160 µM | 72 h | 2.03e+06 and 2.06e+06 |
| 66660 µM | 72 h | 1350 and 1680 |
| 33330 µM | 72 h | 1240 and 1550 |

Series 3
Structure (SMILES): Cn1cnc2cc3c(Nc4cccc(Br)c4)ncnc3cc21
Effect on: enzyme activity
Action: inhibitor
Tested at: 0.5 µM
Baseline: control
| target | remaining activity |
| --- | --- |
| Serine/threonine-protein kinase 25 (STK25, Homo sapiens, UniProt O00506) | 99% |
| Tyrosine-protein kinase Fer (FER, Homo sapiens, UniProt P16591) | 90.6% |
| Tyrosine-protein kinase ITK/TSK (ITK, Homo sapiens, UniProt Q08881) | 102% |
| Cyclin-dependent kinase 3, with cyclin E (CDK3, Homo sapiens, UniProt Q00526) | 92.5% |
| Serine/threonine-protein kinase TAO3 (TAOK3, Homo sapiens, UniProt Q9H2K8) | 97.6% |
| Megakaryocyte-associated tyrosine-protein kinase (MATK, Homo sapiens, UniProt P42679) | 85.9% |
| Serine/threonine-protein kinase Nek11 (NEK11, Homo sapiens, UniProt Q8NG66) | 101% |
| Proto-oncogene tyrosine-protein kinase Src (SRC, Homo sapiens, UniProt P12931) | 81.2% |
| Serine/threonine-protein kinase NLK (NLK, Homo sapiens, UniProt Q9UBE8) | 100% |
| Homeodomain-interacting protein kinase 1 (HIPK1, Homo sapiens, UniProt Q86Z02) | 108% |
| RAC-alpha serine/threonine-protein kinase (AKT1, Homo sapiens, UniProt P31749) | 89.1% |
| Serine/threonine-protein kinase MRCK alpha (CDC42BPA, Homo sapiens, UniProt Q5VT25) | 93.2% |
| LIM domain kinase 1 (LIMK1, Homo sapiens, UniProt P53667) | 99% |
| Insulin receptor (INSR, Homo sapiens, UniProt P06213) | 94.4% |
| PAS domain-containing serine/threonine-protein kinase (PASK, Homo sapiens, UniProt Q96RG2) | 89.8% |
| Serine/threonine-protein kinase N1 (PKN1, Homo sapiens, UniProt Q16512) | 89.1% |
| Tyrosine-protein kinase Fgr (FGR, Homo sapiens, UniProt P09769) | 55.8% |
| MAP/microtubule affinity-regulating kinase 3 (MARK3, Homo sapiens, UniProt P27448) | 104% |
| Vascular endothelial growth factor receptor 3 (FLT4, Homo sapiens, UniProt P35916) | 89.7% |
| Tyrosine-protein kinase Fyn (FYN, Homo sapiens, UniProt P06241) | 85.9% |
| ALK tyrosine kinase receptor (ALK, Homo sapiens, UniProt Q9UM73) | 92.4% |
| cAMP-dependent protein kinase catalytic subunit PRKX (PRKX, Homo sapiens, UniProt P51817) | 101% |

Series 4
SMILES: CN1CCN(C(=O)c2ccc(NC(=O)Nc3ccc(N(C)c4ccnc(Nc5ccc(CS(C)(=O)=O)cc5)n4)cc3)cc2)CC1
Method: competitive binding panel
Tested at: 1 µM
Baseline: vehicle
| target | refers to | remaining binding |
| --- | --- | --- |
| Tyrosine-protein kinase ITK/TSK (ITK, Homo sapiens, UniProt Q08881) | – | 98% |
| MAP kinase-activated protein kinase 5 (MAPKAPK5, Homo sapiens, UniProt Q8IW41) | – | 84% |
| Atypical kinase COQ8B, mitochondrial (COQ8B, Homo sapiens, UniProt Q96D53) | ADCK4 | 47% |
| Leucine-rich repeat serine/threonine-protein kinase 2 (LRRK2, Homo sapiens, UniProt Q5S007, G2019S) | – | 71% |
| Phosphatidylinositol 4,5-bisphosphate 3-kinase catalytic subunit alpha isoform (PIK3CA, Homo sapiens, UniProt P42336, H1047L) | – | 96% |
| Casein kinase II subunit alpha' (CSNK2A2, Homo sapiens, UniProt P19784) | – | 63% |

For quick reference, copied from above (series 3):
| target | remaining activity |
| --- | --- |
| Tyrosine-protein kinase ITK/TSK (ITK, Homo sapiens, UniProt Q08881) | 102% |
| Cyclin-dependent kinase 3, with cyclin E (CDK3, Homo sapiens, UniProt Q00526) | 92.5% |
| Serine/threonine-protein kinase TAO3 (TAOK3, Homo sapiens, UniProt Q9H2K8) | 97.6% |
